Measured values gathered from unrelated publications.
± gives the spread as reported.

SMILES	system	setting	tissue uptake
CCCC[C@H](NC(=O)CNC(=O)CNC(=O)CN1CCN(CC(=O)O)CCN(CC(=O)O)CCN(CC(=O)O)CC1)C(=O)N[C@H]1CC(=O)NCCCC[C@@H](C(N)=O)NC(=O)[C@H](Cc2c[nH]c3ccccc23)NC(=O)[C@H](CCCNC(=N)N)NC(=O)[C@@H](Cc2ccccc2)NC(=O)[C@H](Cc2c[nH]cn2)NC1=O [lead-203 labelled]	C57 mouse, skin	intravenous, 0.056 MBq, 4 h	0.22 ± 0.17 %ID/g
O=C([O-])CN1CCN(CC(=O)[O-])CCN(CC(=O)NCCc2ccc3c(c2)C2C=CCC2C(c2cc4c(cc2Br)OCO4)N3)CCN(CC(=O)[O-])CC1.[111In+3] (centres unmarked)	mouse, Hec50 endometrial tumour, liver	1 h post injection	12 ± 1.43 %ID/g
CN(C)c1ccc(-c2nc3ccc(OCCCCCN4CCN5CCN(CC4)CC(=O)[O][Al]([18F])[O]C(=O)C5)cc3s2)cc1	ICR mouse, muscle	intravenous, 10 min	2.96 ± 0.69 %ID/g
CN1C(=O)[C@@H](Cc2ccc(O)c(I)c2)NC(=O)CNC(=O)[C@H](Cc2ccc3ccccc3c2)NC(=O)[C@H](CCCNC(=N)N)NC(=O)[C@H]1CCCNC(=O)c1ccc(CNC(=O)CN2CCN(CC(=O)O)CCN(CC(=O)O)CCN(CC(=O)O)CC2)cc1 [lutetium-177 labelled]	female CB-17 SCID mouse, Daudi xenograft, blood	intravenous, 6 h, CXCR4 blocking, with: AMD3100 2 mg/kg coinjected	0.06 ± 0.01 %ID/g
CCCC[C@H](NC(=O)CNC(=O)CNC(=O)CN1CCN(CC(=O)O)CCN(CC(=O)O)CCN(CC(=O)O)CC1)C(=O)N[C@H]1CC(=O)NCCCC[C@@H](C(N)=O)NC(=O)[C@H](Cc2c[nH]c3ccccc23)NC(=O)[C@H](CCCNC(=N)N)NC(=O)[C@@H](Cc2ccccc2)NC(=O)[C@H](Cc2c[nH]cn2)NC1=O [copper-64 labelled]	female C57 mouse, B16/F1 melanoma, bone	intravenous, 0.037 MBq, 24 h	0.42 ± 0.11 %ID/g
CC(C)[C@H](NC(=O)[C@@H]1CCCN1C(=O)[C@H](CCCNC(=N)N)NC(=O)[C@H](CS)NC(=O)[C@H](Cc1c[nH]c2ccccc12)NC(=O)[C@H](CCCNC(=N)N)NC(=O)[C@@H](Cc1ccccc1)NC(=O)[C@H](Cc1c[nH]cn1)NC(=O)[C@H](CCC(=O)O)NC(=O)[C@H](CS)NC(=O)[C@H](CS)NC(=O)CNC(=O)[C@@H]1CC(=O)N[C@@H](CCCNC(=N)N)C(=O)NCC(=O)N[C@@H](CC(=O)O)C(=O)N[C@H](Cc2ccc(O)cc2)C(=O)N1)C(N)=O [technetium-99m labelled]	C57 mouse, female, B16/F1 melanoma, blood	intravenous, 0.037 MBq, 2 h	0.7 ± 0.47 %ID/g
CCCC[C@H](NC(=O)CNC(=O)CNC(=O)CN1CCN(CC(=O)O)CCN(CC(=O)O)CC1)C(=O)N[C@H]1CC(=O)NCCCC[C@@H](C(N)=O)NC(=O)[C@H](Cc2c[nH]c3ccccc23)NC(=O)[C@H](CCCNC(=N)N)NC(=O)[C@@H](Cc2ccccc2)NC(=O)[C@H](Cc2c[nH]cn2)NC1=O [copper-64 labelled]	female C57 mouse, B16/F1 melanoma, blood	intravenous, 0.037 MBq, 24 h	0.1 ± 0.04 %ID/g
CC(C)[C@H](NC(=O)[C@@H]1CCCN1C(=O)[C@H](CCCNC(=N)N)NC(=O)[C@H](CS)NC(=O)[C@H](Cc1c[nH]c2ccccc12)NC(=O)[C@H](CCCNC(=N)N)NC(=O)[C@@H](Cc1ccccc1)NC(=O)[C@H](Cc1c[nH]cn1)NC(=O)[C@H](CCC(=O)O)NC(=O)[C@H](CS)NC(=O)[C@H](CS)NC(=O)[C@@H]1CC(=O)N[C@@H](CCCNC(=N)N)C(=O)NCC(=O)N[C@@H](CC(=O)O)C(=O)N[C@H](Cc2ccc(O)cc2)C(=O)N1)C(N)=O [technetium-99m labelled]	C57 mouse, female, B16/F1 melanoma, lung	intravenous, 0.037 MBq, 2 h	1.54 ± 0.2 %ID/g
